Experimental data from different studies.
± marks the error that the study gave.

The EC50 of COc1ccc(NC(=O)N2CCCCN3[C@H](CN(C)C)[C@H](c4ccc(C#Cc5ccccc5)cc4)[C@@H]3C2)cc1 is reported as 0.933 µM (Plasmodium cynomolgi; liver-stage small forms (hypnozoites); primary rhesus hepatocytes, M strain).
CCc1cn([C@@H]2O[C@H](CO)[C@@H](O)[C@H]2O)c2nc[nH]c(=O)c12 gave an EC50 of > 64 µM (Leishmania infantum; parasite growth, imaging; mouse Macrophage; 5 days, intracellular, amastigote).
CN(C)CCNC(=O)c1cc(-c2ccccc2)nc2ccccc12 gave an EC50 of < 1 µM (Enterovirus D68; cytopathic effect; RD, US/KY/14-18953; bound over five strains).
The EC50 of CCCn1/c(=N/C(=O)c2cccc(C(N)=O)c2)[nH]c2ccccc21 is reported as 11 µM (Plasmodium berghei; liver stage parasite load, inhibitor, luciferase; HepG2; compound added 4 h post infection).
With COc1ccc(NC(=O)N2CCCCN3[C@H](CO)[C@H](c4ccc(C#Cc5ccccc5)cc4)[C@@H]3C2)cc1 the EC50 was 3.34 µM (Plasmodium cynomolgi; liver-stage small forms (hypnozoites); primary rhesus hepatocytes, M strain).
N=C(N)N has an EC50 of 91 ± 11 µM (Enterovirus D68; cytopathic effect, inhibitor, neutral red uptake; RD cells, Fermon; 33 °C, 25 mM MgCl2).
For O=C(NCCN1CCCC1)c1cc(-c2cccs2)nc2ccccc12, the EC50 was ≤ 0.1 µM (Enterovirus D68; viral replication, CPE; RD, US/KY/14-18953; 3 days).
CC1(C)C=C2[C@H]3CC[C@@H]4[C@@]5(C)CC[C@H](OC(=O)C6CCCC6)C(C)(C)[C@@H]5CC[C@@]4(C)[C@]3(C)CC[C@@]2(C(=O)O)CC1 gave an EC50 of > 10 µM (HIV-1 IIIB; viral replication, item: p24 antigen; MT-2; day 4).
For CCCCC#Cc1cn([C@@H]2O[C@H](CO)[C@@H](O)[C@H]2O)c2ncnc(C)c12, the EC50 was 2.38 µM (Leishmania infantum; parasite growth, imaging; mouse Macrophage; 5 days, intracellular, amastigote).
O=[N+]([O-])c1cn2c(n1)O[C@@H](COc1ccc(-c3ccc(F)cc3)nc1)CC2 has an EC50 of 0.77 µM (Leishmania panamensis; parasite growth; mouse Peritoneal macrophage; 72 h, intracellular, amastigote).
For C[C@H]1CN(c2n[nH]c3nc(N[C@H]4CC[C@H](NS(=O)(=O)CCC(F)(F)F)CC4)ncc23)CCO1, the EC50 was 0.05 µM (Leishmania donovani; human PBMC, LV9).
Cc1ncnc2c1c(C1CCCCC1)cn2[C@@H]1O[C@H](CO)[C@@H](O)[C@H]1O gave an EC50 of > 64 µM (Leishmania infantum; parasite growth, imaging; mouse Macrophage; 5 days, intracellular, amastigote).
Cc1c(C(=O)Nc2ccc3c(c2)B(O)OC3)nnn1-c1ccccn1 gave an EC50 of 18.3 µM (Leishmania panamensis; parasite growth; mouse Peritoneal macrophage; 72 h, intracellular, amastigote).
Cc1ncnc2c1c(Br)cn2[C@@H]1O[C@H](CO)[C@@H](O)[C@H]1O has an EC50 of 24.1 µM (Leishmania infantum; parasite growth, imaging; mouse Macrophage; 5 days, intracellular, amastigote).
COc1cc(NC(C)CCCNC(=O)c2ccccc2N)c2ncccc2c1 (stereo not drawn) has an EC50 of > 100 µM (HIV-2; cytopathic effect; MT4, ROD; 5 days).
For Cc1ncnc2c1c(C1=CCCC1)cn2[C@@H]1O[C@H](CO)[C@@H](O)[C@H]1O, the EC50 was > 64 µM (Leishmania infantum; parasite growth, imaging; mouse Macrophage; 5 days, intracellular, amastigote).
For CCN(CC)CCCC(C)Nc1ccnc2cc(Cl)ccc12 (stereo not drawn), the EC50 was 3.8 ± 1.6 µM (HIV-2; cytopathic effect; MT4, ROD; 5 days).
With CCC(=O)O[C@H]1CC[C@]2(C)[C@H]3CC[C@@H]4C5=CC(C)(C)CC[C@]5(C(=O)O)CC[C@@]4(C)[C@]3(C)CC[C@H]2C1(C)C the EC50 was > 10 µM (HIV-1 IIIB; viral replication, item: p24 antigen; MT-2; day 4).
The EC50 of CC(C)=Cc1cn([C@@H]2O[C@H](CO)[C@@H](O)[C@H]2O)c2ncnc(C)c12 is reported as > 64 µM (Leishmania infantum; parasite growth, imaging; mouse Macrophage; 5 days, intracellular, amastigote).
The EC50 of CCCCC(=O)O[C@H]1CC[C@]2(C)[C@H]3CC[C@@H]4C5=CC(C)(C)CC[C@]5(C(=O)O)CC[C@@]4(C)[C@]3(C)CC[C@H]2C1(C)C is reported as > 10 µM (HIV-1 IIIB; viral replication, item: p24 antigen; MT-2; day 4).
With Cc1ncnc2c1c(Cl)cn2[C@@H]1O[C@H](CO)[C@@H](O)[C@H]1O the EC50 was 3 µM (Leishmania infantum; parasite growth, imaging; mouse Macrophage; 5 days, intracellular, amastigote).

For quick reference, copied from above:
With COc1ccc(NC(=O)N2CCCCN3[C@H](CO)[C@H](c4ccc(C#Cc5ccccc5)cc4)[C@@H]3C2)cc1 the EC50 was 3.34 µM (Plasmodium cynomolgi; liver-stage small forms (hypnozoites); primary rhesus hepatocytes, M strain).
N=C(N)N has an EC50 of 91 ± 11 µM (Enterovirus D68; cytopathic effect, inhibitor, neutral red uptake; RD cells, Fermon; 33 °C, 25 mM MgCl2).
For O=C(NCCN1CCCC1)c1cc(-c2cccs2)nc2ccccc12, the EC50 was ≤ 0.1 µM (Enterovirus D68; viral replication, CPE; RD, US/KY/14-18953; 3 days).
